Assay results gathered from unrelated publications.
± gives the spread as reported.
Chain of UniProt P48730 (whole entry, looked up): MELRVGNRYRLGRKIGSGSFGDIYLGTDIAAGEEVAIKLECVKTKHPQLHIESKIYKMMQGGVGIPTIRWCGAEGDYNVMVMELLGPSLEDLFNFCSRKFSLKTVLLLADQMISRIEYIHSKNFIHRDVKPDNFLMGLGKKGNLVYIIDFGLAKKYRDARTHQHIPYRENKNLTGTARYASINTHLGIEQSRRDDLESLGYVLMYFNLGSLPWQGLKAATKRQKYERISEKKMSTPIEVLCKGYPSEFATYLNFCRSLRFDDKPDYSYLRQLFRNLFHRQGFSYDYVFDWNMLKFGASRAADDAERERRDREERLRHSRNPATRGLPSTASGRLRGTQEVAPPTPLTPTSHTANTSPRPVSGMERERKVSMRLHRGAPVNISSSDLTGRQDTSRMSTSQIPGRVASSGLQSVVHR

Structure (SMILES)	target or system	test	test system	setting	quantity	value
Nc1nn2c(-c3ccco3)cc(-c3ccc(OCc4ccccc4)cc3)nc2c1N=Nc1ccc(F)cc1	Enterococcus faecalis	broth microdilution	MTCC 0459		MBC/MIC ratio	16
COc1cc(-c2nc3ccccc3c(=O)n2Nc2ccc([N+](=O)[O-])cc2[N+](=O)[O-])ccc1OCc1cn(CC(=O)Nc2cccc(C)c2)nn1	mushroom tyrosinase	inhibitor, colorimetric		added: L-DOPA substrate	IC50	29.5 ± 8.51 µM
O=C(Nc1cc(-c2ccc(Cl)cc2)[nH]n1)C1CCCCC1	Casein kinase I isoform delta (CSNK1D, Homo sapiens, UniProt P48730)	enzyme activity, Dundee kinase panel		10 µM	remaining activity	87%
CCOc1c([C@H](C)n2nc(C)c3c(N)ncnc32)cc(Cl)c(F)c1[C@@H]1CNC(=O)C1			patients with B-cell malignancies, plasma	oral, 30 mg, day 15, monotherapy	half-life	9.4 ± 2 h

Some of these lines once more:
Structure (SMILES)	target or system	test	test system	setting	quantity	value
Nc1nn2c(-c3ccco3)cc(-c3ccc(OCc4ccccc4)cc3)nc2c1N=Nc1ccc(F)cc1	Enterococcus faecalis	broth microdilution	MTCC 0459		MBC/MIC ratio	16
